Measurements from different studies.
Each line is one published result; not all experiments were run side by side. In brackets after ≈: the same amount, converted by molar mass.
Chain of UniProt Q14012 (whole entry, looked up): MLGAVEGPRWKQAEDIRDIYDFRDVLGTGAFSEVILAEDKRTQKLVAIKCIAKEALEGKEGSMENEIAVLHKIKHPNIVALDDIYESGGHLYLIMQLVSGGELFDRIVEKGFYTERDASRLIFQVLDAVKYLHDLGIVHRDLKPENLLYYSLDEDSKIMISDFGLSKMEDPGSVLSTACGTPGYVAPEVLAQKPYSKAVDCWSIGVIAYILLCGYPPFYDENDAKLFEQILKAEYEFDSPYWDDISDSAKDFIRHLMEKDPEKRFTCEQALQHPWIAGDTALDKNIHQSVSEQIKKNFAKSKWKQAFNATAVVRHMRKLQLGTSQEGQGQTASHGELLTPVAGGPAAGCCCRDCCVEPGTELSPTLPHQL

`COC(=O)c1cc(-c2cccc(NC(=O)Nc3cccc(Br)c3)c2)on1` gave an MIC of > 64 µg/mL (Mycolicibacterium fortuitum; microbial growth, broth dilution; ATCC6841; 48 h).
For `C[N+]1=C2C=C(N/C=C/c3ccc(O)cc3)C(=O)c3[nH]cc(c32)CC1`, the IC50 was 966 nM (Plasmodium falciparum; parasite growth, SYBR Green; W2; blood stage).
For `O=C(c1ccc(Cl)cc1)N1CCCC(C(=O)N(Cc2nnc(-c3ccccc3Cl)o2)C2CC2)C1` (stereo not shown), the EC50 was 198 nM (Plasmodium falciparum; parasite growth, SYBR Green; 3D7; 72 h).
With `C#Cc1ccc(C=NNC(=O)c2ccc(Br)c(O)c2)c(O)c1` the MIC80 was > 16 µg/mL (Candida albicans; microbial growth; pH 7.4).
`O=C(NNc1cccc(Cl)c1)c1nnc(CC23CC4CC(CC(C4)C2)C3)o1` has an EC50 of > 50 µg/mL (Rhizoctonia solani; microbial growth).
For `C#Cc1cccc(C=NNC(=O)c2ccc(Br)c(Br)c2)c1O`, the MIC80 was 0.015 µg/mL (≈ 0.0355 µM) (Cryptococcus neoformans; microbial growth, broth dilution; pH 7.4).
With `Cc1sc(CNCCCNc2cc(=O)c3ccccc3[nH]2)c(I)c1C` the EC50 was 57.6 nM (Plasmodium falciparum; parasite growth, SYBR Green; 3D7; 72 h).
The MFC of `OC(Cn1cncn1)(Cn1cncn1)c1ccc(F)cc1F` is reported as 32 µM (≈ 9.8 µg/mL) (Candida tropicalis; microbial killing, broth dilution; CGMCC2; 48 h).
`COC(=O)c1cc(-c2cccc(NC(=O)Nc3cccc(Cl)c3)c2)on1` gave an MIC of > 64 µg/mL (Mycolicibacterium fortuitum; microbial growth, broth dilution; ATCC6841; 48 h).
For `C#Cc1cc(O)c(C=NNC(=O)c2ccc(Br)c(Br)c2)cc1C#C`, the MIC80 was 0.12 µg/mL (≈ 0.269 µM) (Cryptococcus neoformans; microbial growth, broth dilution; pH 7.4).
With `CCOc1cccc(=O)c2c(C)n(Cc3ccc(Cl)cc3)c(C)c12` the EC50 was 106 nM (Plasmodium falciparum; parasite growth, SYBR Green; 3D7; 72 h).
`O=C(NNc1ccc(Cl)c(Cl)c1)c1nnc(CC23CC4CC(CC(C4)C2)C3)o1` gave an inhibition of 75.4% (Rhizoctonia solani; microbial growth; 50 µg/mL).
For `COC(=O)c1cc(-c2cccc(NC(=O)Nc3ccccc3C)c2)on1`, the MIC was > 64 µg/mL (Mycolicibacterium fortuitum; microbial growth, broth dilution; ATCC6841; 48 h).
The EC50 of `COc1ccccc1NC(=O)CSc1nc2cccnc2n1-c1ccccc1OC` is reported as 287 nM (Plasmodium falciparum; parasite growth, SYBR Green; 3D7; 72 h).
For `COC(=O)c1cc(-c2cccc(NC(=O)Nc3ccc(Cl)cc3Cl)c2)on1`, the MIC was > 64 µg/mL (Pseudomonas aeruginosa; microbial growth, broth dilution; ATCC27853).
With `O=C(NNc1ccc(Cl)c(Cl)c1)c1nnc(C23CC4CC(CC(C4)C2)C3)o1` the EC50 was > 12.5 µg/mL (Rhizoctonia solani; microbial growth).
`COC(=O)c1cc(-c2cccc(NC(=O)Nc3ccc(Cl)cc3)c2)on1` has an MIC of > 64 µg/mL (Mycolicibacterium fortuitum; microbial growth, broth dilution; ATCC6841; 48 h).
`C#Cc1ccc(O)c(C=NNC(=O)c2ccc(OC(F)(F)F)cc2F)c1` gave an MIC80 of 4 µg/mL (≈ 10.9 µM) (Cryptococcus neoformans; microbial growth, broth dilution; pH 7.4).
With `[2H]c1c([2H])c([C@]2([2H])CCCN2C(=O)C(C)(C)Oc2ccc3cn[nH]c3c2)c([2H])c([2H])c1C([2H])([2H])[2H]` the remaining binding was 89% (Calcium/calmodulin-dependent protein kinase type 1 (CAMK1, Homo sapiens, UniProt Q14012); binding, competition with immobilised ligand; 1 µM).
`COC(=O)c1cc(-c2cccc(NC(=O)NCc3ccccc3)c2)on1` gave an MIC of > 64 µg/mL (Mycobacteroides chelonae; microbial growth, broth dilution; ATCC35752; 48 h).
The MIC80 of `C#Cc1cccc(C=NNC(=O)c2ccc(Br)cc2)c1O` is reported as 0.007 µg/mL (≈ 0.0204 µM) (Cryptococcus neoformans; microbial growth, broth dilution; pH 7.4).
`COC(=O)c1cc(-c2ccc(NC(=O)Nc3ccc(Cl)c(Cl)c3)cc2)on1` has an MIC of > 64 µg/mL (Klebsiella pneumoniae; microbial growth, broth dilution; BAA1705).
`CC(=O)N1CCN(c2ccc(OCC3COC(Cn4ccnc4)(c4ccc(Cl)cc4Cl)O3)cc2)CC1` (stereo not shown) has an MFC of 16 µM (≈ 8.5 µg/mL) (Candida tropicalis; microbial killing, broth dilution; CGMCC2; 48 h).
The MIC80 of `C#Cc1ccc(O)c(C=NNC(=O)c2ccc(Br)c(Br)c2)c1` is reported as 0.06 µg/mL (≈ 0.142 µM) (Cryptococcus neoformans; microbial growth, broth dilution; pH 7.4).
`COC(=O)c1cc(-c2cccc(NC(=S)Nc3ccc([N+](=O)[O-])cc3)c2)on1` gave an MIC of > 64 µg/mL (Mycobacteroides chelonae; microbial growth, broth dilution; ATCC35752; 48 h).

Some of these lines once more:
The MIC80 of `C#Cc1cccc(C=NNC(=O)c2ccc(Br)cc2)c1O` is reported as 0.007 µg/mL (≈ 0.0204 µM) (Cryptococcus neoformans; microbial growth, broth dilution; pH 7.4).
With `[2H]c1c([2H])c([C@]2([2H])CCCN2C(=O)C(C)(C)Oc2ccc3cn[nH]c3c2)c([2H])c([2H])c1C([2H])([2H])[2H]` the remaining binding was 89% (Calcium/calmodulin-dependent protein kinase type 1 (CAMK1, Homo sapiens, UniProt Q14012); binding, competition with immobilised ligand; 1 µM).
